# Results of several laboratories.
# Lines come from different studies, so protocols differ. ± marks the error that the study gave. No end group written: not given here.
# B1: erenumab; V domains shown; sequence looked up; VH QVQLVESGGGVVQPGRSLRLSCAASGFTFSSFGMHWVRQAPGKGLEWVAVISFDGSIKYSVDSVKGRFTISRDNSKNTLFLQMNSLRAEDTAVYYCARDRLNYYDSSGYYHYKYYGMAVWGQGTTVTVSS; VL QSVLTQPPSVSAAPGQKVTISCSGSSSNIGNNYVSWYQQLPGTAPKLLIYDNNKRPSGIPDRFSGSKSGTSTTLGITGLQTGDEADYYCGTWDSRLSAVVFGGGTKLTVL
# B2: UGT1A9 (Homo sapiens, UniProt O60656); chain GKLLVVPMDGSHWFTMRSVVEKLILRGHEVVVVMPEVSWQLGRSLNCTVKTYSTSYTLEDLDREFKAFAHAQWKAQVRSIYSLLMGSYNDIFDLFFSNCRSLFKDKKLVEYLKESSFDAVFLDPFDNCGLIVAKYFSLPSVVFARGILCHYLEEGAQCPAPLSYVPRILLGFSDAMTFKERVRNHIMHLEEHLLCHRFFKNALEIASEILQTPVTEYDLYSHTSIWLLRTDFVLDYPKPVMPNMIFIGGINCHQGKPLPMEFEAYINASGEHGIVVFSLGSMVSEIPEKKAMAIADALGKIPQTVLWRYTGTRPSNLANNTILVKWLPQNDLLGHPMTRAFITHAGSHGVYESICNGVPMVMMPLFGDQMDNAKRMETKGAGVTLNVLEMTSEDLENALKAVINDKSYKENIMRLSSLHKDRPVEPLDLAVFWVEFVMRHKGAPHLRPAAHDLTWYQYHSLDVIGFLLAVVLTVAFITFKCCAYGYRKCLGKKGRVKKAHKSKTH
# B3: rsd Y34F (Escherichia coli, UniProt P0AFX4); chain MLNQLDNLTERVRGSNKLVDRWLHVRKHLLVAYFNLVGIKPGKESYMRLNEKALDDFCQSLVDYLSAGHFSIYERILHKLEGNGQLARAAKIWPQLEANTQQIMDYYDSSLETAIDHDNYLEFQQVLSDIGEALEARFVLEDKLILLVLDAARVKHPA
# UniProt Q9UNE7, sequence (whole entry, looked up): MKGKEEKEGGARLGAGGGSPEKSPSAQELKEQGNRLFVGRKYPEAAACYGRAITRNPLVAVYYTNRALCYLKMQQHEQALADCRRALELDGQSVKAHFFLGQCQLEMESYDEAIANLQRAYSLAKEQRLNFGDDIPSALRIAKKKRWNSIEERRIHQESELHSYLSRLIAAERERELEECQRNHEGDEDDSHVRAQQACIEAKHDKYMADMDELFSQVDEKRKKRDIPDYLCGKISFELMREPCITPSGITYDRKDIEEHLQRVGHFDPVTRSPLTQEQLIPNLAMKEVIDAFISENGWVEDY
# UniProt P06730, sequence (whole entry, looked up): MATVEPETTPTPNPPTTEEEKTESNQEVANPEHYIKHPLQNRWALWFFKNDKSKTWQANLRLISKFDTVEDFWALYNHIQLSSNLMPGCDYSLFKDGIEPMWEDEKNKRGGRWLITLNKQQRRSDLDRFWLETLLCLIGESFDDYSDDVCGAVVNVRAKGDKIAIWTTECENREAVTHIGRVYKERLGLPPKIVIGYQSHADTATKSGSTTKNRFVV
# UniProt P00579, sequence (whole entry, looked up): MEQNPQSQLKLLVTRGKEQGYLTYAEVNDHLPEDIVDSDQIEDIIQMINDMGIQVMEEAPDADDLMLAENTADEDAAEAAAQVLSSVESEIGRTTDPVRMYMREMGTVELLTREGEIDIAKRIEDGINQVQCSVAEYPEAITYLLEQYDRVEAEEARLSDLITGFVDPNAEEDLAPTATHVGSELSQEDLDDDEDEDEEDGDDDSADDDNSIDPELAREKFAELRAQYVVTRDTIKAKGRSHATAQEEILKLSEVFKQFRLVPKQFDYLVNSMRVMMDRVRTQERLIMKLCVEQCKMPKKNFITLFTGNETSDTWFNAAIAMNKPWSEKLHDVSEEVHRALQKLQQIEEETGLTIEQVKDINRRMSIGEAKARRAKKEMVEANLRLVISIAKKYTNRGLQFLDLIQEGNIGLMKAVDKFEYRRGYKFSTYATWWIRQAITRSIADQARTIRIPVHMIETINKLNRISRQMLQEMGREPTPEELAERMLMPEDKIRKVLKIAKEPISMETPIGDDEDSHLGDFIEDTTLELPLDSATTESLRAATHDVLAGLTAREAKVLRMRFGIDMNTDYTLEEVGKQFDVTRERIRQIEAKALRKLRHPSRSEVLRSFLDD
# UniProt P25024, sequence (whole entry, looked up): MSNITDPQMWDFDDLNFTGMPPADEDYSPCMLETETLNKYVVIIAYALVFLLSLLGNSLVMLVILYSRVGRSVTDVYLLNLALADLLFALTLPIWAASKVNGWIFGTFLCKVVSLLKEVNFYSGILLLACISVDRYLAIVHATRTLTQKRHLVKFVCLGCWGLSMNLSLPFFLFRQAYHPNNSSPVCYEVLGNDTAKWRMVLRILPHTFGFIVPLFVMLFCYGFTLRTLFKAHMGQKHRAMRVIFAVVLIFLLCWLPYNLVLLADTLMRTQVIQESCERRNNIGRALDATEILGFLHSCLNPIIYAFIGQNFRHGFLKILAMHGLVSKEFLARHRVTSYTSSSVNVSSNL
# UniProt P10145, sequence (whole entry, looked up): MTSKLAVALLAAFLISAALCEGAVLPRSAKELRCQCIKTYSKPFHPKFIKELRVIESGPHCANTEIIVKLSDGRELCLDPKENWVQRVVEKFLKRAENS
Molecule,tested on,test,system,conditions,how to read,endpoint,value
rat amylin,"Islet amyloid polypeptide (IAPP, Homo sapiens, UniProt P10997)",ThT fluorescence,,"4 molar equivalents, pH 7.2, 2% HFIP",,aggregation lag time,50 min
human Hsc70,"E3 ubiquitin-protein ligase CHIP (STUB1, Homo sapiens, UniProt Q9UNE7)","binder, biolayer interferometry",,"pH 7.4, 25 °C, equilibrium saturation fit",,Kd,60 ± 7 nM
B1 (erenumab),CALCR/RAMP1 on cells (Homo sapiens),"cAMP production, antagonist, Schild analysis","antibody, HEK293S",together with: αCGRP,,pKB,6.58
"REC102 N-terminal MBP fusion (Saccharomyces cerevisiae, UniProt Q02721)","SPO11 (Saccharomyces cerevisiae, UniProt P23179)",SEC-MALS,,,,molecule per partner,1
"TPDYLMQLMNDKKLMSSLPNFSGIFNHLERLLDEEISRARKDMYNDTLNGSTEK (Qki 14-67 C35S/V52A (Mus musculus, UniProt Q9QYS9))",itself,CD thermal melting,,50 µM,,melting temperature,60 °C
B2 (UGT1A9),COc1cc2oc(=O)cc(-c3ccccc3)c2cc1O,steady-state kinetics,,"pH 7.4, 37 °C",,Vmax/Km,12 µL/min/mg
B3 (rsd Y34F),"rpoD (Escherichia coli, UniProt P00579)","single-round in vitro transcription, inhibitor",,,"reference: absence of Rsd, higher = less inhibition",remaining transcription,20%
"CXCL8 (Homo sapiens, UniProt P10145)","CXCR1 (Homo sapiens, UniProt P25024)",label-free dynamic mass redistribution,HEK293T,,higher = stronger response,maximal response,69.7 DMR
ribosomes whole ribosome (Rattus norvegicus),"CRIP3 active 22-286 del163-164/del167-189 (Zea mays, UniProt P28522)",SPR,,60 nM,,association response,105 RU
RBM38 Pep8,"EIF4E (Homo sapiens, UniProt P06730)",immunoblot,RKO,"2.5 µM, 18 h","reference: untreated, higher = more p53",p53 protein level,1.8 fold
"CALM1 holo (Homo sapiens, UniProt P0DP23)","Nos1 (Rattus norvegicus, UniProt P29476)",optical stopped-flow,,"CaM pre-incubated, together with: NADPH, holo CaM",,heme reduction rate,26.3 s⁻¹
"GRKKRRQRRRAHQ (Rhodamine-HIV Tat(48–60); also: rhodamine label, place not given here; sequence looked up)",HeLa,FCS,peptide,"500 nM, 30 min, 37 °C",,cytosolic delivery efficiency,2%

# For quick reference, copied from above:
Molecule,tested on,test,system,conditions,how to read,endpoint,value
B3 (rsd Y34F),"rpoD (Escherichia coli, UniProt P00579)","single-round in vitro transcription, inhibitor",,,"reference: absence of Rsd, higher = less inhibition",remaining transcription,20%
